Experimental data from different studies.
Each numbered part is a random draw from the data of one study; scales do not carry over between parts.
Sequence of UniProt Q6P3R8 (whole entry, looked up): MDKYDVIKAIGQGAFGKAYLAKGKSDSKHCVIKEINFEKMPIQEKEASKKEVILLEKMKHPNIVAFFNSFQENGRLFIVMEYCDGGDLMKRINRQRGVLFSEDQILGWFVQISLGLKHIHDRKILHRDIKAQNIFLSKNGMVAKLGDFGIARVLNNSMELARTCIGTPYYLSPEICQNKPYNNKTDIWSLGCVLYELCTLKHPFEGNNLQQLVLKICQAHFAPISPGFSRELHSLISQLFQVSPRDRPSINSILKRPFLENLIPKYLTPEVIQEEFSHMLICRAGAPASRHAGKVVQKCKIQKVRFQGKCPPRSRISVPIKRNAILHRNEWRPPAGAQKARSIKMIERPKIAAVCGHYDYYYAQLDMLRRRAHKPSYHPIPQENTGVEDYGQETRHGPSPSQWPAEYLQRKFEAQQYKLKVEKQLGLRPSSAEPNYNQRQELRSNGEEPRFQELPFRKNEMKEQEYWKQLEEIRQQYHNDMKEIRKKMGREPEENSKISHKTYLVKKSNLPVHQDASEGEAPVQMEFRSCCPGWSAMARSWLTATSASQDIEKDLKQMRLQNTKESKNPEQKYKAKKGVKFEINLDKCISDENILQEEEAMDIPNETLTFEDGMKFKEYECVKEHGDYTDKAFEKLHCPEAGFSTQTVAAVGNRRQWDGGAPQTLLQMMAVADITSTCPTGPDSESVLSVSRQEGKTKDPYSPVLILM
Sequence of UniProt P19525 (whole entry, looked up): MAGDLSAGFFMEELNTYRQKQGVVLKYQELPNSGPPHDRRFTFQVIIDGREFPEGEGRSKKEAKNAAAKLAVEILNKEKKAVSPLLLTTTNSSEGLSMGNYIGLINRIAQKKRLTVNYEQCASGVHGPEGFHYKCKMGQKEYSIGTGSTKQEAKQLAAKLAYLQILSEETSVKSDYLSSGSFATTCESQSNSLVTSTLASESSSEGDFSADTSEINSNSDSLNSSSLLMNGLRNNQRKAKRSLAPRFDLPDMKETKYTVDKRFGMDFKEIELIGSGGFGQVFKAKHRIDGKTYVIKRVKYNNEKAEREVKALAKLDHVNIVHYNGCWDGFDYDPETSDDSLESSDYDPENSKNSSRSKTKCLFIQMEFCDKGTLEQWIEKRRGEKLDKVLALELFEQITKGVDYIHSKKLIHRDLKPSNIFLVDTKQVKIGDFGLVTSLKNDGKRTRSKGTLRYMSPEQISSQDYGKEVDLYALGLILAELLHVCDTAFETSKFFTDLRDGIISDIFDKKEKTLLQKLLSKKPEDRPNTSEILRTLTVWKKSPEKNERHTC
Sequence of UniProt Q8TDR2 (whole entry, looked up): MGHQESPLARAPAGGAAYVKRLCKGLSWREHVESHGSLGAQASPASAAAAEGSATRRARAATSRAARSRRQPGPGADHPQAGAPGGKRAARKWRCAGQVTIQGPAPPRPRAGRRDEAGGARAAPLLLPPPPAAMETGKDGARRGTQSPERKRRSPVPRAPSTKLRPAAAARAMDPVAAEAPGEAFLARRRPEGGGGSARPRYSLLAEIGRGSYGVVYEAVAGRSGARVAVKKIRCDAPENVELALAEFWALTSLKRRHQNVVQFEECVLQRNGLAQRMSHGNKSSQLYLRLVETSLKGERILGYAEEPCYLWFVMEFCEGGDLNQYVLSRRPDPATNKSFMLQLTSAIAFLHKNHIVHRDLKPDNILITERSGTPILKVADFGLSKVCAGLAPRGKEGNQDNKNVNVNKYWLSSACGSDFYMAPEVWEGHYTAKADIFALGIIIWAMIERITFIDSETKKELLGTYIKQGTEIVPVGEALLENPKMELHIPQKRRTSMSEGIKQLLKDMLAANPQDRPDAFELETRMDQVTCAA
Sequence of UniProt Q00526 (whole entry, looked up): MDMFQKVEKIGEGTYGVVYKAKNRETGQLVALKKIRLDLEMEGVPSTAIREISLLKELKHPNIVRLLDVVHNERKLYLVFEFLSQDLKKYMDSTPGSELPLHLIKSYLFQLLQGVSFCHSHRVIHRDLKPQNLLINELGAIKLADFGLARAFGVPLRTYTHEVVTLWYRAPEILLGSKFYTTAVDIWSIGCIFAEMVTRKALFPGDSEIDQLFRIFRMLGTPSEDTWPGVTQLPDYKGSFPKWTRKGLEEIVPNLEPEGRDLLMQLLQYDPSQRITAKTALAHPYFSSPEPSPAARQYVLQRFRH
Sequence of UniProt Q8TBX8 (whole entry, looked up): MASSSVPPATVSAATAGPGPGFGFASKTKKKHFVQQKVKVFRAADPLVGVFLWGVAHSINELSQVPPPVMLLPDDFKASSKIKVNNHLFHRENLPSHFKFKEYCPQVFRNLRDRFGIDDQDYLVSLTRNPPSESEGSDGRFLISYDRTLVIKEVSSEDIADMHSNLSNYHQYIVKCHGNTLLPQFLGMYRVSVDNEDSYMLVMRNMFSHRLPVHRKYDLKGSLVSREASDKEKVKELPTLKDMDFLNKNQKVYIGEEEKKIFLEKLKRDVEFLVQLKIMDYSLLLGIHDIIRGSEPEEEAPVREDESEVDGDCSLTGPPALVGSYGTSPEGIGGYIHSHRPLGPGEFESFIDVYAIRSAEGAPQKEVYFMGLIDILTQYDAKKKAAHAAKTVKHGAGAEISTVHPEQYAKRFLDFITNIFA
Sequence of UniProt Q9Y6M4 (whole entry, looked up): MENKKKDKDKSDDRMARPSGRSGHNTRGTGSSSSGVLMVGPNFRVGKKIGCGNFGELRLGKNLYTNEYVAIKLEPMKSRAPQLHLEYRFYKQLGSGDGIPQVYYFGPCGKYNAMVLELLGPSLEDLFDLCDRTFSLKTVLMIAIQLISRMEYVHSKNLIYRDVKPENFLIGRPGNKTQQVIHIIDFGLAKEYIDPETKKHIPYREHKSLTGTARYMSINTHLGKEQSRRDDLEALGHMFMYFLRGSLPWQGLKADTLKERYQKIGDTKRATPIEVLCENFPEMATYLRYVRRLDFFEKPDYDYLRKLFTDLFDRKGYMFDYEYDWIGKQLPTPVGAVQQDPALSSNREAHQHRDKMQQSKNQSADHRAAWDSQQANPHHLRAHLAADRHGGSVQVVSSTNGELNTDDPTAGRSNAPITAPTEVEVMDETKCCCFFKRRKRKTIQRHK
Sequence of UniProt O95747 (whole entry, looked up): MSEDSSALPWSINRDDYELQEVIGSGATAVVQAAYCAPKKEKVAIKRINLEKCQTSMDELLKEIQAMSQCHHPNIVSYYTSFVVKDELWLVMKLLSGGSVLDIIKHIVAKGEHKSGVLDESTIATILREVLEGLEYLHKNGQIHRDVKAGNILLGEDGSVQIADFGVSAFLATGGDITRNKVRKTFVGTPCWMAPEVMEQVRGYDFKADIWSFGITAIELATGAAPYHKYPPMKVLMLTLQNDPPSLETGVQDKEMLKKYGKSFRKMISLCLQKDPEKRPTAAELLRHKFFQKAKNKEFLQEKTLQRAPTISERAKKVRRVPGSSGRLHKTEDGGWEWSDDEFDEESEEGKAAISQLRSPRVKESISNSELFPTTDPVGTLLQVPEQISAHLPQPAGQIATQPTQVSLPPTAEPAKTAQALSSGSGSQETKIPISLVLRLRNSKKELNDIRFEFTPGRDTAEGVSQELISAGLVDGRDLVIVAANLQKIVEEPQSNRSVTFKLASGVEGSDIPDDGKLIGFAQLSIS

Set 1 — host: mouse; medium: microsomes or S9; concentration: 2 µM; time: 0.5 h; endpoint: remaining compound
SMILES = O=C1CCCc2nc(Nc3ccc(F)cc3)ncc21; result = 1.91%
SMILES = COC(=O)c1sccc1NC(=O)c1cn(C)c(=O)cc1OC; result = < 1%
SMILES = Oc1cc(O)c2c(c1)O[C@H](c1ccc(O)c(O)c1)[C@H](O)[C@H]2c1c(O)cc(O)c2c1O[C@H](c1ccc(O)c(O)c1)[C@H](O)C2; result = 88.3%
SMILES = Cc1cc(C)c(S(=O)(=O)NC(CCC(=O)O)C(=O)O)cc1N(C)S(C)(=O)=O (centres unmarked); result = 91.5%
SMILES = COc1nc(NC(C)C)nc(N2C(=N)NC(=O)C2C)n1 (centres unmarked); result = 81.5%

Set 2 — mode: agonist; endpoint: EC50
Target: Beta-1 adrenergic receptor (ADRB1, Homo sapiens, UniProt P08588)
Sequence of UniProt P08588 (whole entry, looked up): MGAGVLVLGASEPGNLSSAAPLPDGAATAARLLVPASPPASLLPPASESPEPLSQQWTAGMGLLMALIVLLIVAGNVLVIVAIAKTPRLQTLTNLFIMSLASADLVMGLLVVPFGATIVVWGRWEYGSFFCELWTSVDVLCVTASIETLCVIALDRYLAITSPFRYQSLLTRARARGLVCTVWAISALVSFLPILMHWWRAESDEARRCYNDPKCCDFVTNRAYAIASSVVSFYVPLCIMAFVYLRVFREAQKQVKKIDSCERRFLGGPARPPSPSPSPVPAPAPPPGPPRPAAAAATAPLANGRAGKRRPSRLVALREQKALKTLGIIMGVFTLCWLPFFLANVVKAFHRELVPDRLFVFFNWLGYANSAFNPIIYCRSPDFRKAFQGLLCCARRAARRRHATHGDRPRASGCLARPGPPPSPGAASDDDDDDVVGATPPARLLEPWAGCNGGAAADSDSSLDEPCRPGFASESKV
SMILES = COc1cc(CNCCCO)ccc1OCC(O)CN1CCSCC1 (centres unmarked); result = ≥ 100 µM
SMILES = CC(C)c1noc(-c2ccc(N(C)CC(O)c3ccccc3)nc2)n1 (centres unmarked); result = ≥ 100 µM
SMILES = CS(=O)(=O)N(CC(O)Cn1c2ccccc2c2ccccc21)c1ccc(F)cc1 (centres unmarked); result = ≥ 100 µM
SMILES = CCOc1ccc(C(=O)N2CCN(c3ccccc3OC)CC2)cc1; result = ≥ 100 µM

Set 3 — read-out: cell-free assay; method: competition with immobilised ligand; concentration: 0.1 µM; endpoint: remaining binding
Structure (SMILES): O=C(NCCCC1CCCCC1)c1ccc(CNC(=O)c2cnn(-c3ccccc3)c2C(F)(F)F)cc1
target = PIP4K2C (Homo sapiens, UniProt Q8TBX8); result = 99%
target = EIF2AK2 (Homo sapiens, UniProt P19525); result = 64%
target = CSNK1G3 (Homo sapiens, UniProt Q9Y6M4); result = 100%
target = STK35 (Homo sapiens, UniProt Q8TDR2); result = 100%
target = OXSR1 (Homo sapiens, UniProt O95747); result = 91%
target = NEK5 (Homo sapiens, UniProt Q6P3R8); result = 100%
target = CDK3 (Homo sapiens, UniProt Q00526); result = 100%

Set 4 — read-out: enzyme activity; mode: inhibitor; concentration: 0.5 µM; reference: control; endpoint: remaining activity
Target: Serine/threonine-protein kinase 17A (STK17A, Homo sapiens, UniProt Q9UEE5)
Target sequence (Q9UEE5 1-414): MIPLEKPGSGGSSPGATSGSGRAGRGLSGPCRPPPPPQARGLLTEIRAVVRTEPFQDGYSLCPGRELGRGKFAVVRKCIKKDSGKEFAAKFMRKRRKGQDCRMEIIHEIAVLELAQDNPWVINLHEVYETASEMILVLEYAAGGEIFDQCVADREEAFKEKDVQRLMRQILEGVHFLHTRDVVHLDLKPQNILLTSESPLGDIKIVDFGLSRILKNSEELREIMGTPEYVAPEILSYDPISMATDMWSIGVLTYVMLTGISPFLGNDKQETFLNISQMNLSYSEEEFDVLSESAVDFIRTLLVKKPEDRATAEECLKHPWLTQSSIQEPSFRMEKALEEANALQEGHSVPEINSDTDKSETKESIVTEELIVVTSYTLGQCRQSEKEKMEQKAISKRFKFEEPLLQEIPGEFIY
Structure (SMILES) = Oc1ccc(-c2nc(-c3ccncc3)c(-c3ccc(F)cc3)[nH]2)cc1; result = 101%
Structure (SMILES) = Cn1c2ccccc2c2c3c(c4c5ccccc5n(CCC#N)c4c21)CNC3=O; result = 85.3%
Structure (SMILES) = CC(C)[C@H](CO)Nc1nc(Nc2cc(N)cc(Cl)c2)c2ncn(C(C)C)c2n1; result = 96.3%
Structure (SMILES) = CNC(=O)c1cc(Oc2ccc(NC(=O)Nc3ccc(Cl)c(C(F)(F)F)c3)cc2)ccn1; result = 96%
Structure (SMILES) = Cc1ccc(Nc2nccc(N(C)c3ccc4c(C)n(C)nc4c3)n2)cc1S(N)(=O)=O; result = 95.9%
Structure (SMILES) = COc1ccc(CNC(=O)Nc2ncc([N+](=O)[O-])s2)cc1; result = 91.6%
Structure (SMILES) = O=C(Nc1cccc(Nc2cc(Nc3cccc(C(F)(F)F)c3)ncn2)c1)C1CC1; result = 99.2%
Structure (SMILES) = N#CC(C#N)=C(N)/C(C#N)=C/c1ccc(O)cc1; result = 72.8%
Structure (SMILES) = OCC(O)CCON=C1C(c2c(O)[nH]c3ccccc23)=Nc2ccccc21 (centres unmarked); result = 22.5%
Structure (SMILES) = Cc1cccc(-c2[nH]c(C(C)(C)C)nc2-c2ccc3c(c2)OCO3)n1; result = 84.1%
